Measured values pooled from the literature.
Each numbered part is a random draw from the data of one study; scales do not carry over between parts. Numbers after ± are the reported error.
Chain of UniProt P25440 (whole entry, looked up): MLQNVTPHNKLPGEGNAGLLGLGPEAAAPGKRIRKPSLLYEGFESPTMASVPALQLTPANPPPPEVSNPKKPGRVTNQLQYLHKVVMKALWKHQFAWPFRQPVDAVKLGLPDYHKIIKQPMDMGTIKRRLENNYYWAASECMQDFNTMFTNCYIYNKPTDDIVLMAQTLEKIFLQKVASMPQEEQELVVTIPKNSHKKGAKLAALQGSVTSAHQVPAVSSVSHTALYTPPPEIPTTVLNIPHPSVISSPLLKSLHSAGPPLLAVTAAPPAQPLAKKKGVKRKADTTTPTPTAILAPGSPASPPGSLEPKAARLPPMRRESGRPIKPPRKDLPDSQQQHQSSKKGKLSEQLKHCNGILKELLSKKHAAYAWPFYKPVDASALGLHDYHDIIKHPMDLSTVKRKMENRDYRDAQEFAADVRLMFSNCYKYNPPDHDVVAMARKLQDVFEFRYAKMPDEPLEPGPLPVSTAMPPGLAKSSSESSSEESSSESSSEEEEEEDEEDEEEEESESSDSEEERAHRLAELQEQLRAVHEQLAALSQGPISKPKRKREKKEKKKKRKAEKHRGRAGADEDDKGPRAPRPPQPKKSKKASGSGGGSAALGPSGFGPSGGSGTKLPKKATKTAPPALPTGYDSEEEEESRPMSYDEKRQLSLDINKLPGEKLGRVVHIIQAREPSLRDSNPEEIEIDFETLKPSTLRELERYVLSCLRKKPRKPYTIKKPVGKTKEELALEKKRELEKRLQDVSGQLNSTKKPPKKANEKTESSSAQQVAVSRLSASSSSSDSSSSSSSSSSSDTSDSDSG
Chain of UniProt P41743 (whole entry, looked up): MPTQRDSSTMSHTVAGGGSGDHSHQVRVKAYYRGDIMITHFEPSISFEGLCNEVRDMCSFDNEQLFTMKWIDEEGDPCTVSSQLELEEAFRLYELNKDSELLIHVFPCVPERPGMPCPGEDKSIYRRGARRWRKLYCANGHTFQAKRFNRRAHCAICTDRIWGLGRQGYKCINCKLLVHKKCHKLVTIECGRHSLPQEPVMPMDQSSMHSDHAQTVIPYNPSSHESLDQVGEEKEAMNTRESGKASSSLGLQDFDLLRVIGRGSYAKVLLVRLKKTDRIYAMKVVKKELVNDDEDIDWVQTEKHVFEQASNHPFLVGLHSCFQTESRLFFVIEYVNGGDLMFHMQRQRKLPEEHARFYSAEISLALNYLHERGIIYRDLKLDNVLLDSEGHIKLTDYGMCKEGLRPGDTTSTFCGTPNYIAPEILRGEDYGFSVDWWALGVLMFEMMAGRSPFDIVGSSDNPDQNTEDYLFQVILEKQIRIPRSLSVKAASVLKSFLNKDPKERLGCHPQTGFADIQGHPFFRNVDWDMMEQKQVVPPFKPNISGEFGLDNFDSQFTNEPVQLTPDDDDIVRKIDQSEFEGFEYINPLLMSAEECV
Chain of UniProt Q96GD4 (whole entry, looked up): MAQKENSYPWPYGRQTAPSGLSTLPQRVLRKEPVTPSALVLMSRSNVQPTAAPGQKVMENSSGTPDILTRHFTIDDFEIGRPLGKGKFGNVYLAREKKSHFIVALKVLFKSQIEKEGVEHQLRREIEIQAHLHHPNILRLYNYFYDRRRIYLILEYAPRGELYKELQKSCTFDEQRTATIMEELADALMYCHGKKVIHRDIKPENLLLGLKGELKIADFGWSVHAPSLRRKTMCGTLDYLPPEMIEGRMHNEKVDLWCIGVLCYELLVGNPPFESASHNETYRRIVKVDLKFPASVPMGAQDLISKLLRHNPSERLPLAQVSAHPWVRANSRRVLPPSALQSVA
Chain of UniProt Q86U86 (whole entry, looked up): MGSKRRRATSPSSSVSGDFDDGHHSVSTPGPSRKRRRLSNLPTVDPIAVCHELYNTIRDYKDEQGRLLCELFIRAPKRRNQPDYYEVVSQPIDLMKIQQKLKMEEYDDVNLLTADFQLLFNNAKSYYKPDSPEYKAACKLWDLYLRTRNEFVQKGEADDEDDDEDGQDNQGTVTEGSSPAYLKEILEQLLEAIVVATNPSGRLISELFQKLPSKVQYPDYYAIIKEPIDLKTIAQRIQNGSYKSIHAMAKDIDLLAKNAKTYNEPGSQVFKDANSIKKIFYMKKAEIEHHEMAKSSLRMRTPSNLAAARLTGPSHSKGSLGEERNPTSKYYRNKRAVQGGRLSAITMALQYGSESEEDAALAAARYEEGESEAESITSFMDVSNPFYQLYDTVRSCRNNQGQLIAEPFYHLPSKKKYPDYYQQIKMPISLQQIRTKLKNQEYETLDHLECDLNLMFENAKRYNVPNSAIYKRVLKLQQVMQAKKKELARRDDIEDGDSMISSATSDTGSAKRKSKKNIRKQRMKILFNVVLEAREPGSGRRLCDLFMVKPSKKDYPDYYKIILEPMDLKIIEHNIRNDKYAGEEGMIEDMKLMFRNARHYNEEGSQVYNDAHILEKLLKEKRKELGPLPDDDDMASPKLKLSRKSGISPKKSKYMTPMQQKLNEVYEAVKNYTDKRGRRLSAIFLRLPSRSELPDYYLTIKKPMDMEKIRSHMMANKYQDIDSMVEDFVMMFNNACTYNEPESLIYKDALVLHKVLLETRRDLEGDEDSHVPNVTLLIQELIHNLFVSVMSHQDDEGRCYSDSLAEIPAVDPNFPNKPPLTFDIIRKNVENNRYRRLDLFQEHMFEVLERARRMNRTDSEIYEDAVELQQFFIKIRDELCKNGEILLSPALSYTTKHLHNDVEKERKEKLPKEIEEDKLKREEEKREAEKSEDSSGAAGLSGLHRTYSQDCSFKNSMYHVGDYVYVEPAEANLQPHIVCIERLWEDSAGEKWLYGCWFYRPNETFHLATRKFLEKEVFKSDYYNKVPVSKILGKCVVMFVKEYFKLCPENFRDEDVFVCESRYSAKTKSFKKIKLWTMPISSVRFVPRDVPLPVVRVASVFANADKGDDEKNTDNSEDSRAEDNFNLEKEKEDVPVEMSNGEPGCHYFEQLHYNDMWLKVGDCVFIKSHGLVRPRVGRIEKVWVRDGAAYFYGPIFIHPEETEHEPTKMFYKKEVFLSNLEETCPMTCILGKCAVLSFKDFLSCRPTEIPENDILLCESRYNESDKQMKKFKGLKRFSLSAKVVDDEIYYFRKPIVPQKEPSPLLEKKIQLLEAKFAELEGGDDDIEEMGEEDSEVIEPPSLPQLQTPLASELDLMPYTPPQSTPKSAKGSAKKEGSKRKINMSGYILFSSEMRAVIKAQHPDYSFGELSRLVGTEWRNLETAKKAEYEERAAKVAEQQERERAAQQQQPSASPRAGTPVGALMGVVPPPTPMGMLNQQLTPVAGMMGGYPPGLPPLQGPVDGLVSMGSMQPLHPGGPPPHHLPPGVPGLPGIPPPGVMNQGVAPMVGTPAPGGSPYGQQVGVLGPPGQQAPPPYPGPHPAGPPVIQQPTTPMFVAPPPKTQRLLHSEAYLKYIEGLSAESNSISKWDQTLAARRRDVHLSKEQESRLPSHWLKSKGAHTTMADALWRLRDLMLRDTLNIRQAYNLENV
Chain of UniProt Q16584 (whole entry, looked up): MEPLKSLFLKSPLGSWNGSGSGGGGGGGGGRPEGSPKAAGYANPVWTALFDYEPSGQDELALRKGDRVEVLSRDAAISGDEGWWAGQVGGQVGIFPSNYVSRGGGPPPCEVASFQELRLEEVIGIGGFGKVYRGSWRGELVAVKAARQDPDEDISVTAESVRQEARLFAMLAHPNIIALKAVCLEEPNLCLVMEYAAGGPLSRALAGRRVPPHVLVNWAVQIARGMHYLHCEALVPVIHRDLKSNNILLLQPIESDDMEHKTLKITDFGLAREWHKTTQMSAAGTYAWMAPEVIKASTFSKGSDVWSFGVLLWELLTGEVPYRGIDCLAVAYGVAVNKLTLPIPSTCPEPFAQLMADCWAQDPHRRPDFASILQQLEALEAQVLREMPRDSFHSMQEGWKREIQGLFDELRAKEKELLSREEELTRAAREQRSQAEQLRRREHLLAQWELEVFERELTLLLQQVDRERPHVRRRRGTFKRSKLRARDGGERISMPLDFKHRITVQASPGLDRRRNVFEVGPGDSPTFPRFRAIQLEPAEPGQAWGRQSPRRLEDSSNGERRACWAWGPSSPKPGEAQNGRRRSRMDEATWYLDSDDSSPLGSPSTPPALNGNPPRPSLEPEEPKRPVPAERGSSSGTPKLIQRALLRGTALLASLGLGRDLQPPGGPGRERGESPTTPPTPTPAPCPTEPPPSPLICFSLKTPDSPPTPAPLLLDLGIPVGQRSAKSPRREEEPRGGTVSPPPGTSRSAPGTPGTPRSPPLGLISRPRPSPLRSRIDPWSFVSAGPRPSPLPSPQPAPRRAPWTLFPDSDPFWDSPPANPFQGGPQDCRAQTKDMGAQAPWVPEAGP

Study 1 — observed: enzyme activity; action: inhibitor; concentration: 10 µM; quantity: inhibition
Target: Calcium/calmodulin-dependent protein kinase type II subunit alpha (CAMK2A, Homo sapiens, UniProt Q9UQM7)
Chain of UniProt Q9UQM7 (whole entry, looked up): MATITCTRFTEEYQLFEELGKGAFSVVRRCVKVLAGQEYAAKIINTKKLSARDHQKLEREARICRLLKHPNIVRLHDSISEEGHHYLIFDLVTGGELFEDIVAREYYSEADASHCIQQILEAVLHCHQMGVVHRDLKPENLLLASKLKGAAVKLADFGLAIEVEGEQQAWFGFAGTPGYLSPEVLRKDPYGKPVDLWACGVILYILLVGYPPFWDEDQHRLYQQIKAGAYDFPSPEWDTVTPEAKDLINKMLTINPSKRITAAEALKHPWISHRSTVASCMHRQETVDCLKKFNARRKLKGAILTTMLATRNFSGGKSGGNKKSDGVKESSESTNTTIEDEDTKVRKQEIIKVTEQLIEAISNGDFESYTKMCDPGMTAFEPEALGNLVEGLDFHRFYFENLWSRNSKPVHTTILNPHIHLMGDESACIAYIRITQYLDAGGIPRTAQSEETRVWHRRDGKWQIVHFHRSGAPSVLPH
O=c1c(O)c(-c2ccc(O)c(O)c2)oc2cc(O)c(O)c(O)c12: -93%
NCCCCC(=O)O: -19%
CC(=O)O[C@H]1Cc2ccccc2N(C(N)=O)c2ccccc21: 3%
C[C@H](CC[C@@H](O[C@@H]1O[C@H](CO[C@@H]2O[C@H](CO)[C@@H](O)[C@H](O)[C@H]2O)[C@@H](O)[C@H](O)[C@H]1O[C@@H]1O[C@H](CO)[C@@H](O)[C@H](O)[C@H]1O)C(C)(C)O)[C@H]1CC[C@@]2(C)[C@@H]3CC=C4[C@@H](CC[C@H](O[C@@H]5O[C@H](CO[C@@H]6O[C@H](CO)[C@@H](O)[C@H](O)[C@H]6O)[C@@H](O)[C@H](O)[C@H]5O)C4(C)C)[C@]3(C)[C@H](O)C[C@]12C: -13%
C=CCOC(Cn1ccnc1)c1ccc(Cl)cc1Cl (stereo not shown): -29%
C=C(C)[C@@H]1CC[C@]2(C)CC[C@]3(C)[C@H](CC[C@@H]4[C@@]5(C)CC[C@H](O)C(C)(C)[C@@H]5CC[C@]43C)[C@@H]12: -28%
CCCCCC(=O)O[C@]1(C(C)=O)CC[C@H]2[C@@H]3CCC4=CC(=O)CC[C@]4(C)[C@H]3CC[C@@]21C: 0%

Study 2 — observed: enzyme activity; action: inhibitor; concentration: 0.5 µM; relative to: control; quantity: remaining activity
Target: Mitogen-activated protein kinase kinase kinase 7 (MAP3K7, Homo sapiens, UniProt O43318)
Target sequence (O43318 1-606): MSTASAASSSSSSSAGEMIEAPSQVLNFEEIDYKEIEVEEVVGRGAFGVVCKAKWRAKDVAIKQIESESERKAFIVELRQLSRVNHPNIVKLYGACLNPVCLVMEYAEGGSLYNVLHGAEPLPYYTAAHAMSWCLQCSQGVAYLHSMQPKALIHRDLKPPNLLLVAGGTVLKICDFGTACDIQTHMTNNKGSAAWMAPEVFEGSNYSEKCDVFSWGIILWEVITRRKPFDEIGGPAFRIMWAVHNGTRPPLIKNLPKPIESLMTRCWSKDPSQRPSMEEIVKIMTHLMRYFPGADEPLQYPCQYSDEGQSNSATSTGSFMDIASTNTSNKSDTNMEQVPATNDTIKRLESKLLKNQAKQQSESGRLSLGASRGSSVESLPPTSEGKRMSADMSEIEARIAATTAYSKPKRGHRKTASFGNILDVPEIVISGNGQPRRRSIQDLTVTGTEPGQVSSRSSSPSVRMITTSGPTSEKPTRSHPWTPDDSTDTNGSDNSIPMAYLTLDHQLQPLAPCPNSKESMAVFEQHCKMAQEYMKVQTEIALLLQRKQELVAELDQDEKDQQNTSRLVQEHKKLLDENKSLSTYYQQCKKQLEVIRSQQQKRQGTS
Nc1cccc(-c2cc3c(Oc4cccc(O)c4)ncnc3[nH]2)c1: 63%
c1ccc(-c2[nH]ncc2-c2ccnc3ccccc23)nc1: 98.4%
O=C1C(Cl)=C(N2C(=O)CCC2=O)C(=O)c2ccccc21: 99.5%
O=C(NC(NC(=S)Nc1ccc(F)c([N+](=O)[O-])c1)C(Cl)(Cl)Cl)C(c1ccccc1)c1ccccc1 (stereo not shown): 89.7%
N#Cc1c(NC(=O)c2cccc3ccccc23)sc2c1CCCC2: 99.7%
Cc1nc2cc3nc(-c4cccs4)cnc3cc2n1C: 92.5%
COc1cc2ncnc(Nc3cccc(Cl)c3)c2cc1OC: 96.9%
C[C@@H]1CCN(C(=O)CC#N)C[C@@H]1N(C)c1ncnc2[nH]ccc12: 87.5%
Cn1nc2c3c(cccc31)C(=O)c1ccccc1-2: 83.9%
Cc1cc2ncc(-c3ccccc3)nc2cc1C: 89.8%
CN([C@@H](Cc1ccc(OS(=O)(=O)c2cccc3cnccc23)cc1)C(=O)N1CCN(c2ccccc2)CC1)S(=O)(=O)c1cccc2cnccc12: 93.4%
O=C1c2ccccc2-c2n[nH]c3cccc1c23: 59.3%
CCN(CC)C(=O)c1ccc(Nc2nc(OCC3CCCCC3)c3[nH]cnc3n2)cc1: 57.1%
COc1cc2c(cc1OC)-c1[nH]nc(Nc3cccc(F)c3)c1C2: 94%
O=c1cc(-c2cccc3c2Sc2ccccc2S3)oc(N2CCOCC2)c1: 84.5%
COc1cc2ncnc(Nc3ccc(O)c(Br)c3)c2cc1OC: 100%
CCN(CC)CCNC(=O)c1c(C)[nH]c(/C=C2\C(=O)Nc3ccc(Cl)cc32)c1C: 3.51%
O=C(Nc1cccc(Nc2nccc(Nc3cccc(C(F)(F)F)c3)n2)c1)C1CC1: 87.4%
c1ccc(-c2cnc(Nc3ccc(OCCN4CCCC4)cc3)s2)cc1: 102%
N#C/C(=C\c1ccc(O)c(O)c1)C(=O)NCc1ccccc1: 98.1%
CN(C)C[C@H]1CCn2c(c(C3=C(c4cn(C)c5ccccc45)C(=O)NC3=O)c3ccccc32)C1: 95.3%
CCN(CC)CCNC(=O)c1c(C)[nH]c(/C=C2\C(=O)Nc3ccc(F)cc32)c1C: 18.6%
CCOc1nc(NC(=O)Cc2cc(OC)ccc2OC)cc(N)c1C#N: 96.6%
Cc1cn(-c2cc(NC(=O)c3ccc(C)c(Nc4nccc(-c5cccnc5)n4)c3)cc(C(F)(F)F)c2)cn1: 89.2%
Ic1cccc(CSc2nnc(-c3ccncc3)o2)c1: 102%

Study 3 — concentration: 10 µM; quantity: ΔTm
SMILES: C[S+]([O-])c1ccc(-c2nc(-c3ccncc3)c(-c3ccc(F)cc3)[nH]2)cc1 (stereo not shown)
Bromodomain-containing protein 2, BD1 (BRD2, Homo sapiens, UniProt P25440); thermal stability, DSF: 0.92 °C
CREBBP (Homo sapiens, UniProt Q92793); thermal stability, DSF: 0.92 °C
Protein polybromo-1, BD3 (PBRM1, Homo sapiens, UniProt Q86U86); thermal shift: 0.87 ± 0.18 °C
Transcription initiation factor TFIID subunit 1, BD2 (TAF1, Homo sapiens, UniProt P21675); thermal stability, DSF: 0.29 °C
SP140 (Homo sapiens, UniProt Q13342); thermal stability, DSF: 1.03 °C
Bromodomain-containing protein 2, BD2 (BRD2, Homo sapiens, UniProt P25440); thermal stability, DSF: 1.4 °C
Bromodomain testis-specific protein, BD1 (BRDT, Homo sapiens, UniProt Q58F21); thermal stability, DSF: 0.85 °C

Study 4 — concentration: 0.1 µM; quantity: remaining binding
SMILES: CNC(=O)c1ccc(Nc2ncc(C(F)(F)F)c(NCc3nccnc3N(C)S(C)(=O)=O)n2)cc1
MAP3K11 (Homo sapiens, UniProt Q16584); cell-free assay, competition with immobilised ligand: 35%
Aurora kinase B (AURKB, Homo sapiens, UniProt Q96GD4); cell-free assay, competition with immobilised ligand: 73%
MYLK (Homo sapiens, UniProt Q15746); cell-free assay, competition with immobilised ligand: 75%
STK32A (Homo sapiens, UniProt Q8WU08); cell-free assay, competition with immobilised ligand: 71%
ULK2 (Homo sapiens, UniProt Q8IYT8); cell-free assay, competition with immobilised ligand: 75%
PRKCI (Homo sapiens, UniProt P41743); cell-free assay, competition with immobilised ligand: 84%
NEK4 (Homo sapiens, UniProt P51957); cell-free assay, competition with immobilised ligand: 76%
IKBKB (Homo sapiens, UniProt O14920); cell-free assay, competition with immobilised ligand: 100%
GAK (Homo sapiens, UniProt O14976); cell-free assay, competition with immobilised ligand: 69%
SIK1 (Homo sapiens, UniProt P57059); competition binding: 90%
CSNK1E (Homo sapiens, UniProt P49674); cell-free assay, competition with immobilised ligand: 100%
FLT4 (Homo sapiens, UniProt P35916); cell-free assay, competition with immobilised ligand: 39%
CILK1 (Homo sapiens, UniProt Q9UPZ9); cell-free assay, competition with immobilised ligand: 68%
SGK2 (Homo sapiens, UniProt Q9HBY8); cell-free assay, competition with immobilised ligand: 96%
MET (Homo sapiens, UniProt P08581, Y1235D); cell-free assay, competition with immobilised ligand: 71%
MAP2K3 (Homo sapiens, UniProt P46734); cell-free assay, competition with immobilised ligand: 48%
PNCK (Homo sapiens, UniProt Q6P2M8); cell-free assay, competition with immobilised ligand: 100%
ERBB3 (Homo sapiens, UniProt P21860); cell-free assay, competition with immobilised ligand: 93%
CDK15 (Homo sapiens, UniProt Q96Q40); cell-free assay, competition with immobilised ligand: 67%

Excerpt of the above (study 4):
SIK1 (Homo sapiens, UniProt P57059); competition binding: 90%
PRKCI (Homo sapiens, UniProt P41743); cell-free assay, competition with immobilised ligand: 84%
GAK (Homo sapiens, UniProt O14976); cell-free assay, competition with immobilised ligand: 69%
FLT4 (Homo sapiens, UniProt P35916); cell-free assay, competition with immobilised ligand: 39%
CDK15 (Homo sapiens, UniProt Q96Q40); cell-free assay, competition with immobilised ligand: 67%
SGK2 (Homo sapiens, UniProt Q9HBY8); cell-free assay, competition with immobilised ligand: 96%
CILK1 (Homo sapiens, UniProt Q9UPZ9); cell-free assay, competition with immobilised ligand: 68%
MET (Homo sapiens, UniProt P08581, Y1235D); cell-free assay, competition with immobilised ligand: 71%
